{"data": "Earlier results, collected from citations in different studies", "organism": "HIV-1", "note": "Lines come from different studies, so protocols differ. ± gives the spread as reported."}
{"Structure (SMILES)": "COC(=O)NC(C(=O)NN(Cc1ccc(C=Cc2ccccc2)cc1)CC(O)(Cc1ccccc1)C(=O)NC1c2ccccc2CC1O)C(C)(C)C (stereo not shown)", "assay": "viral replication", "system": "MT-4", "endpoint": "EC50", "result": "> 10000 nM"}
{"Structure (SMILES)": "Cc1cc(C#N)cc(C)c1Oc1nc(NC2CCN(Cc3ccc(S(N)(=O)=O)cc3)CC2)nc2ccsc12", "assay": "viral replication, MTT", "system": "MT-4, IIIB wild type", "endpoint": "EC50", "result": "1.4 ± 0.4 nM"}
{"Structure (SMILES)": "COCCNC(=O)C(NC(=O)C(O)(Cc1ccccc1)CN(Cc1ccc(Br)cc1)NC(=O)C(NC(=O)OC)C(C)(C)C)C(C)C (stereo not shown)", "assay": "viral replication", "system": "MT-4", "endpoint": "EC50", "result": "3100 nM"}
{"Structure (SMILES)": "Cc1cc(-c2ccc(C#N)cc2)cc(C)c1Nc1ccnc(Nc2ccc(C#N)cc2)n1", "assay": "viral replication", "system": "wild type", "endpoint": "EC50", "result": "1 nM"}
{"Structure (SMILES)": "CC(=O)N[C@H](CCCNC(=N)N)C(=O)N[C@H](CCCNC(=N)N)C(=O)N[C@H](CCCNC(=N)N)C(=O)N[C@H](CCCNC(=N)N)C(=O)N[C@H](CCCNC(=N)N)C(=O)N[C@H](CCCNC(=N)N)C(=O)N[C@H](CCCNC(=N)N)C(=O)N[C@H](CCCNC(=N)N)C(=O)N[C@H](CCCNC(=N)N)C(N)=O", "assay": "viral replication", "system": "peripheral blood lymphocytes, NL4-3", "endpoint": "IC50", "result": "3 nM"}
{"Structure (SMILES)": "N#C/C=C/c1cc(Cl)cc(Oc2ccc(Cl)cc2OCCn2ccc(=O)[nH]c2=O)c1", "assay": "viral replication", "system": "wild type", "endpoint": "EC50", "result": "0.055 nM"}
{"Structure (SMILES)": "COC(=O)NC(C(=O)NN(Cc1ccc(Br)cc1)CC(O)(Cc1ccccc1)C(=O)Nc1cccc(O)c1C)C(C)(C)C (stereo not shown)", "assay": "viral replication", "system": "MT-4", "endpoint": "EC50", "result": "> 10000 nM"}
{"Structure (SMILES)": "Cc1cn(C2C=CC(COP(=O)(O)OP(=O)(O)OP(=O)(O)O)O2)c(=O)[nH]c1=O (stereo not shown)", "assay": "viral replication", "system": "CEM/0, IIIB", "endpoint": "EC50", "result": "1050 ± 350 nM"}
{"Structure (SMILES)": "COc1ccc(N(C)C(=O)[C@H](Cc2ccccc2)NC(=O)NS(=O)(=O)N2CCCc3ccccc32)cc1", "assay": "viral replication", "endpoint": "EC50", "result": "110 nM"}
{"Structure (SMILES)": "N#Cc1ccc2c(Oc3ccc(F)cc3OCCn3ccc(=O)[nH]c3=O)cc(F)cc2c1", "assay": "viral replication", "system": "wild type", "endpoint": "EC50", "result": "1.9 nM"}
{"Structure (SMILES)": "COC(=O)NC(C(=O)NN(Cc1ccc(Br)cc1)CC(O)(Cc1ccccc1)C(=O)NC1CCOC1)C(C)(C)C (stereo not shown)", "assay": "viral replication", "system": "MT-4", "endpoint": "EC50", "result": "> 10000 nM"}
{"Structure (SMILES)": "CC(C)CN(C[C@@H](O)[C@H](Cc1ccccc1)NC(=O)O[C@H]1C2CO[C@H]3OC[C@@H]1C3C2)S(=O)(=O)c1ccc2nc(NC3CC3)sc2c1 (stereo partly shown)", "assay": "viral replication, p24", "system": "MT-4, NL4-3 wild type", "conditions": "mean value", "endpoint": "IC50", "result": "0.39 nM"}
{"Structure (SMILES)": "O=C(CCC(CCC(=O)N[C@@H](Cc1ccc(O)cc1)C(=O)O)(CCC(=O)N[C@@H](Cc1ccc(O)cc1)C(=O)O)NC(=O)CCOCC(COCCC(=O)NC(CCC(=O)N[C@@H](Cc1ccc(O)cc1)C(=O)O)(CCC(=O)N[C@@H](Cc1ccc(O)cc1)C(=O)O)CCC(=O)N[C@@H](Cc1ccc(O)cc1)C(=O)O)(COCCC(=O)NC(CCC(=O)N[C@@H](Cc1ccc(O)cc1)C(=O)O)(CCC(=O)N[C@@H](Cc1ccc(O)cc1)C(=O)O)CCC(=O)N[C@@H](Cc1ccc(O)cc1)C(=O)O)COCCC(=O)NC(CCC(=O)N[C@@H](Cc1ccc(O)cc1)C(=O)O)(CCC(=O)N[C@@H](Cc1ccc(O)cc1)C(=O)O)CCC(=O)N[C@@H](Cc1ccc(O)cc1)C(=O)O)N[C@@H](Cc1ccc(O)cc1)C(=O)O", "assay": "viral cytopathicity", "system": "MT-4, NL4.3", "endpoint": "EC50", "result": "6400 ± 1400 nM"}
